Measurements gathered from unrelated publications.
Every numbered part comes from another study and shows a few of its results, in no order.

Series 1
Target: TAR DNA-binding protein 43, full length, His tag (TARDBP, Homo sapiens, UniProt Q13148, residues 1-414)
Method: RNA Bind-n-Seq
Form: RNA
Medium: in vitro
Tested at: 20 nM
Setting: 6-mer, flanks averaged, single round
With: 150 mM KCl
Reference: input library
Reading: higher = stronger binding
Oligonucleotide	6-mer enrichment (R)
CAGGUA	0.84
UACUAC	0.565
GUCGCA	0.895
GGGUAA	1.99
CGCACA	0.714
AGGAGC	1.44

Series 2
Target: Histone acetyltransferase KAT6A, both winged helices, GST fusion (KAT6A, Homo sapiens, UniProt Q92794, residues 1-181)
Method: protein binding microarray
Form: double-stranded DNA, one strand shown
Medium: in vitro
Tested at: not given
Setting: 8-mer, flanks averaged, mean of 2 arrays, mostly near background
Reference: not given
Reading: higher = stronger binding
Target sequence (chain): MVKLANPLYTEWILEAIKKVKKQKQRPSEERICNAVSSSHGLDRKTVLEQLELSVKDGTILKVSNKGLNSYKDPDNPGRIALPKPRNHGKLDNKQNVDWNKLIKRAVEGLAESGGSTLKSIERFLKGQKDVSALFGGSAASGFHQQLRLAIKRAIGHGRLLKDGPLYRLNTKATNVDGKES
Oligonucleotide	E-score
GCCCCCTA	-0.229
CCGGCCAG	0.243
ACCAGGTG	-0.116
GTCAAAAA	-0.0895
CTTGCAGA	-0.0021
TATAACAA	-0.0855
GCCAGGAC	-0.0396
ACCGTCAT	0.161

Series 3
Target: RNA binding protein fox-1 homolog 2, RRM domain, GST-SBP tag (RBFOX2, Homo sapiens, UniProt O43251-10, residues 100-194)
Method: RNA Bind-n-Seq
Form: RNA
Medium: in vitro
Tested at: 365 nM
Setting: natural RNA segment, single round, ends assumed
Reference: no-protein control
Reading: higher = stronger binding
All sequences stand within: GGGAGUUCUACAGUCCGACGAUC … UGGAAUUCUCGGGUGCCAA
Residues (chain): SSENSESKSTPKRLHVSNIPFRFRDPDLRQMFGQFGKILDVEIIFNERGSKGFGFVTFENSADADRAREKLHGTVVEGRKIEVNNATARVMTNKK
Oligonucleotide	RBNS enrichment (R)
GCCUGAAAGGCUCCACAGCAUGGCGUCCGUCUCCCAGGGUUCUGAUCCGUCUCCUCACGGUGCAAUCAGGCAGGACAGGAGGAGGUGCAGGGCUACCACAUUGACCCAGA	0.821
UUGUAUUUUUAGUAGAGACAGGGUUUCACCAUGUUGGCCAGGCUGGUCUUGAACUCCUGACCGCAGGUAAUCCACCUGCUUCGGCCUCCCAAAGUGCUGGGAUUACAGGC	0.292
UUGGCCAUCUGAGUAGAAAUAGGAGUAGCUUUAAGAAAAAGGCAGAUUCUCUAAAGGAAUUUGGAGAUAUGACAUCACUCCUGAGCAGAGCAUAUUAGAAGAAAGCAAAC	0.431
GAAGAGGAAAAGUCCAACUCCUUAGGGAGUCUGAGCCUGGCACGGGCUUGGGGAAAGAAGGCUGCAGGCAGCCUGCCGUCUAGGCAUCACUUUAUUUUUUAUCCUCCAGA	0.359
UCUCUGAAUGGAGCAUGGCUGUUUUCAUCUCACUGCUGUAUUCCAGAUGCUGCCCACAAAUGCUCCUGCUAUGUAACAGGUGCUCAAUAAAUGUAAAUGUAUAAGCACUC	0.921
UACCUUACUAGUAUGACUAUUAUCUUGACUUCUGGUAAUUUAUGUUCACUAUUCCAUUUGUGAAGUGUACUUUCAUUCUAAAGCCUCAGUAUAAGGCAUCCUAACUUACA	0.672
AUCGGGUUCCCGGUAGCUGCCUGGUGACAGUGGUGGCCAAAUCCUCUGUCCUCCCUGUGGAAUCCCUCUGUGGGGCAGGAUGAGUCCUUUGGUGGCCCUCUACUCUAUUG	0.163

Further values, each from its own experiment
Substance	target	test	test system	conditions	scale	quantity	result
PhoQ, residues 284 288 289 292 302 303 TVTVVA	PhoP, residues 12 14 15 18 19 NIMAP (Escherichia coli, UniProt P23836)	Sort-seq, refers to: YFP reporter	E. coli	PhoQ-PhoP variant library, with: 10 µM Mg2+	reference: high Mg2+ state, higher = stronger signaling	fold induction	0.941

Excerpt of the above (series 3):
Oligonucleotide	RBNS enrichment (R)
GCCUGAAAGGCUCCACAGCAUGGCGUCCGUCUCCCAGGGUUCUGAUCCGUCUCCUCACGGUGCAAUCAGGCAGGACAGGAGGAGGUGCAGGGCUACCACAUUGACCCAGA	0.821
UUGUAUUUUUAGUAGAGACAGGGUUUCACCAUGUUGGCCAGGCUGGUCUUGAACUCCUGACCGCAGGUAAUCCACCUGCUUCGGCCUCCCAAAGUGCUGGGAUUACAGGC	0.292
